Experimental data pooled from the literature.
Lines come from different studies, so protocols differ. Several values in a cell are separate wells, animals, samples, runs or records. ± marks the error that the study gave.

COc1cccc2c(Nc3ccc4[nH]c(C(=O)N/N=C/c5ccc(SC)cc5)cc4c3)cc(C)nc12 — apoptotic cells (COS-7; 3 µM, 24 h, 0.1% DMSO, unit not given; relative to: vehicle control): 19.5 ± 7.35
CCCCC1=NC2(CCCC2)C(=O)N1Cc1ccc(-c2ccccc2S(=O)(=O)Nc2noc(C)c2C)c(COCC)c1 — Tmax (healthy adult volunteers, plasma; oral, 200 mg, single dose, fed, crushed tablet): 4.26 h
CCOc1c([C@H](C)n2nc(C)c3c(N)ncnc32)cc(Cl)c(F)c1[C@@H]1CNC(=O)C1 — Tmax (patients with B-cell malignancies, plasma; oral, 20 mg, day 15, monotherapy): 1 h
Cl.[2H]C([2H])([2H])CC(=O)c1cnc(NC(=O)C2CC2)cc1Nc1cccc(-c2ncn(C([2H])([2H])[2H])n2)c1OC — Tmax (human, fasted, plasma; oral, 25 mg, single dose, liquid formulation): 0.75 h
CCn1cc(C(=O)N2CCOCC2)c(=O)c2cc(NC3Cc4ccccc4C3)cnc21 — Tmax (human, fed; oral suspension, 300 mg/day twice daily, day 8, median): 4 h
COc1cc2nc(N3CCCN(C)CC3)nc(NC3CCN(Cc4ccccc4)CC3)c2cc1OC — viability (OCI-Ly1; 1 µM, 120 h): 152%
O=C(O)C[C@H](O)C[C@H](O)/C=C/c1c(C2CC2)nc2ccccc2c1-c1ccc(F)cc1 — apoptotic cells (COS-7; 30 µM, 24 h, 0.1% DMSO, unit not given; relative to: vehicle control): 2.04 ± 0.25
Cc1cccc(CNC(=O)c2cn(CCNC(=O)c3ccccc3S)c3cc4c(cc3c2=O)OC(F)(F)O4)n1 — Tmax (Sprague-Dawley rat, male, whole blood; intramuscular, 30 mg/kg of parent drug): 0.833 ± 0.58 h
NC1(C(=O)N[C@@H](CCO)c2ccc(Cl)cc2)CCN(c2nc[nH]c3nccc2-3)CC1 — Tmax (human, plasma): 1 h and 2 h
CSc1ccccc1C(=O)NCCn1cc(C(=O)NCc2cccc(C)n2)c(=O)c2cc3c(cc21)OC(F)(F)O3 — Tmax (Sprague-Dawley rat, male, plasma; intravenous, 5 mg/kg of parent drug): 0.083 h
C=CCn1c(=O)c2cnc(Nc3ccc(N4CCN(C)CC4)cc3)nc2n1-c1cccc(C(C)(C)O)n1 — Tmax (human; oral, 125 mg twice daily, cycle 1 day 17, together with: durvalumab 1500 mg IV; median): 2.5 h
C=CC(=O)N1CCC[C@@H](n2nc(-c3ccc(Oc4ccccc4)cc3)c3c(N)ncnc32)C1 — Tmax (Wistar rat, male, small intestine; oral, 50 mg/kg): 1 h
CN1CCC[C@H](CN2c3ccccc3Sc3ccccc32)C1.Cl — Tmax (Wistar rats, female, brain; oral, 16 mg/kg): 6 h

Excerpt of the above:
C=CCn1c(=O)c2cnc(Nc3ccc(N4CCN(C)CC4)cc3)nc2n1-c1cccc(C(C)(C)O)n1 — Tmax (human; oral, 125 mg twice daily, cycle 1 day 17, together with: durvalumab 1500 mg IV; median): 2.5 h
